# Assay results of several laboratories.
# Parts stem from different laboratories: compare values within a part only. “And” joins repeats or separate records; there may be more than shown.
# Chain of UniProt Q9NYL2 (whole entry, looked up): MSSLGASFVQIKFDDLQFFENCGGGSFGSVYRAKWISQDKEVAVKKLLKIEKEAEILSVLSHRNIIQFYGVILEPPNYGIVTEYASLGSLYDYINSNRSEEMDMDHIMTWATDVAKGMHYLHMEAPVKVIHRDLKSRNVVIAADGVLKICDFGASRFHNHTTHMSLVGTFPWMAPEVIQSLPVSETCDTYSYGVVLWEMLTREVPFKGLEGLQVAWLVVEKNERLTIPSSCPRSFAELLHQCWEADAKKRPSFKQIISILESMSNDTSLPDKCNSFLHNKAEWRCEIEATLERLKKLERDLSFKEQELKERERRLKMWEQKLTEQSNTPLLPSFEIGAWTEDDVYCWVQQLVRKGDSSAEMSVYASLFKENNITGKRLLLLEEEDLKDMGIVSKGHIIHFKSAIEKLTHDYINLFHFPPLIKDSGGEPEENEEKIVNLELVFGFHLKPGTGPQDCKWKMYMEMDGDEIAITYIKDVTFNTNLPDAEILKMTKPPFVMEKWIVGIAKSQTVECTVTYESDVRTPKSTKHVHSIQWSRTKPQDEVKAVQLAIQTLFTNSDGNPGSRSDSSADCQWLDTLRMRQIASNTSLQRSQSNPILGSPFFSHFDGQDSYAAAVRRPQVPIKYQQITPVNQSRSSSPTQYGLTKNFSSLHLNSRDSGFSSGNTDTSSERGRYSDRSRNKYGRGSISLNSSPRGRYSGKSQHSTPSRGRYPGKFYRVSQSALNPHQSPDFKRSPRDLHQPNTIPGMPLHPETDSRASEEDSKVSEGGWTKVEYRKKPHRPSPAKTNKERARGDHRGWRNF
# Chain of UniProt Q15139 (whole entry, looked up): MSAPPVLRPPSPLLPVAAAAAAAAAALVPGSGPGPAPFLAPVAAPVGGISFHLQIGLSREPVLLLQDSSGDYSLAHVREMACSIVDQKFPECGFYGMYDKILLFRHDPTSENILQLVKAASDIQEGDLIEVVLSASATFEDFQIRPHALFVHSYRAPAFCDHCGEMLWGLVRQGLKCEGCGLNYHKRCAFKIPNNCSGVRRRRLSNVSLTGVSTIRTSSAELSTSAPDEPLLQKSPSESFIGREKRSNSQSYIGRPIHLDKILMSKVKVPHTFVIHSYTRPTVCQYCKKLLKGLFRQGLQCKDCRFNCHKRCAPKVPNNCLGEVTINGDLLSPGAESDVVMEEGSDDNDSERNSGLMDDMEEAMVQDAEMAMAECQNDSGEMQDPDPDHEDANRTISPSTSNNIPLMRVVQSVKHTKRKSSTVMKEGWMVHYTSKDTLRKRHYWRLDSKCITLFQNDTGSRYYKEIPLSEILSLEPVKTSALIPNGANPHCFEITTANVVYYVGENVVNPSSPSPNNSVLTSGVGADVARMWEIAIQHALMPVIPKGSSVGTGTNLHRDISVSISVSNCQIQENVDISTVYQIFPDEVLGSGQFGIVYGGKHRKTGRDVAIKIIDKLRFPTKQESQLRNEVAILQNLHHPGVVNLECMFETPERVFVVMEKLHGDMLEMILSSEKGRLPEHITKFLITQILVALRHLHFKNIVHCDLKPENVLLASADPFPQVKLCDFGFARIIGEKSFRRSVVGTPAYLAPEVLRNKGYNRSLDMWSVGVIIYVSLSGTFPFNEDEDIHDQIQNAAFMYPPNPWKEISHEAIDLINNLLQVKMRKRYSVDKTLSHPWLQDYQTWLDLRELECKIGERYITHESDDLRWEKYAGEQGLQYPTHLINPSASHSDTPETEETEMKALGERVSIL
# Chain of UniProt Q9H093 (whole entry, looked up): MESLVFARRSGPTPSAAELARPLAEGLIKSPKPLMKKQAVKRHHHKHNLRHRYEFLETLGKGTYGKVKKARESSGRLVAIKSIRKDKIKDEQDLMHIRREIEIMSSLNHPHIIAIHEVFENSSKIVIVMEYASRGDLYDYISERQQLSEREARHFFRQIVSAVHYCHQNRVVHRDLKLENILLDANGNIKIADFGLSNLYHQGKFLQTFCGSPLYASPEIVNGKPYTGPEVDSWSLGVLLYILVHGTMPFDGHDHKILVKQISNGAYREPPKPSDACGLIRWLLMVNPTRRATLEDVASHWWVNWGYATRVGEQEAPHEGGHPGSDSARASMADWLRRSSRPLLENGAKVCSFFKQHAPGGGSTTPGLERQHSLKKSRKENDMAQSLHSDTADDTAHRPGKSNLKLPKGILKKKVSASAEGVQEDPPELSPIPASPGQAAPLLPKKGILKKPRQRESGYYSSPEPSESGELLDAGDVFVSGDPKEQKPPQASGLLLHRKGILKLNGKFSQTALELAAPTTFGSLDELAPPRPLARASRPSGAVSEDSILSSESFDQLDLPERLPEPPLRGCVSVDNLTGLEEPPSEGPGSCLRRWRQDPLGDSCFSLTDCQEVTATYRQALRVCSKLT
# Chain of UniProt O43293 (whole entry, looked up): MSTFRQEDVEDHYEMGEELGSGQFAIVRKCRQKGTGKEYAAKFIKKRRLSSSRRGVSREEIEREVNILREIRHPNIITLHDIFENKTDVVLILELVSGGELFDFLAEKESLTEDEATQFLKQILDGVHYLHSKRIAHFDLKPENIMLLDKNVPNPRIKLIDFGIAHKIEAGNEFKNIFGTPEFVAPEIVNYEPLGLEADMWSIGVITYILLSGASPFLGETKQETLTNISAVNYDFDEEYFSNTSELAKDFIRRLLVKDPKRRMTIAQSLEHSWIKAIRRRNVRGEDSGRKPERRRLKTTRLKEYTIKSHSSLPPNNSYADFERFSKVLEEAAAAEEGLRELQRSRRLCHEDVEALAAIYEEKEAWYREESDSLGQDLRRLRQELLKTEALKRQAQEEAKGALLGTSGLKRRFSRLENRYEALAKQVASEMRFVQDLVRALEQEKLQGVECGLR
# Chain of UniProt O60285 (whole entry, looked up): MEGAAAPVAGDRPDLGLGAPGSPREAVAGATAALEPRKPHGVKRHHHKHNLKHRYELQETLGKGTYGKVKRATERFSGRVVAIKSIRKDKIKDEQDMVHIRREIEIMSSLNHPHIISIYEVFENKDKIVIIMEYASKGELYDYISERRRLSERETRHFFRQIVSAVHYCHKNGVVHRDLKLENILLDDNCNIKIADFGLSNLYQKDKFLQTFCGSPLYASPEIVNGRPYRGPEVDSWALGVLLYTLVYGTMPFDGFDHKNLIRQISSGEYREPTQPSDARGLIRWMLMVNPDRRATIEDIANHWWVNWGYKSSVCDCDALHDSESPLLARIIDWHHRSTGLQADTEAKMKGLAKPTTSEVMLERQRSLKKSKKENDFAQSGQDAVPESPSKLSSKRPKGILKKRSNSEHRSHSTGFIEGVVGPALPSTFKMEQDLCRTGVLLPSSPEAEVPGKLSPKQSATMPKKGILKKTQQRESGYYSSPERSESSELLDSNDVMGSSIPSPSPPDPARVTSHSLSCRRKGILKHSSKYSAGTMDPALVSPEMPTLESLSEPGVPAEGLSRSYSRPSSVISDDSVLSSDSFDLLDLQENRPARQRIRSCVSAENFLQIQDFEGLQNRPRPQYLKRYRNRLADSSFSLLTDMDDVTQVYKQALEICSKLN

# Block 1 — effect on: enzyme activity; mode: inhibitor; concentration: 10 µM
# Target: Calcium/calmodulin-dependent protein kinase type II subunit alpha (CAMK2A, Homo sapiens, UniProt Q9UQM7)
# Chain of UniProt Q9UQM7 (whole entry, looked up): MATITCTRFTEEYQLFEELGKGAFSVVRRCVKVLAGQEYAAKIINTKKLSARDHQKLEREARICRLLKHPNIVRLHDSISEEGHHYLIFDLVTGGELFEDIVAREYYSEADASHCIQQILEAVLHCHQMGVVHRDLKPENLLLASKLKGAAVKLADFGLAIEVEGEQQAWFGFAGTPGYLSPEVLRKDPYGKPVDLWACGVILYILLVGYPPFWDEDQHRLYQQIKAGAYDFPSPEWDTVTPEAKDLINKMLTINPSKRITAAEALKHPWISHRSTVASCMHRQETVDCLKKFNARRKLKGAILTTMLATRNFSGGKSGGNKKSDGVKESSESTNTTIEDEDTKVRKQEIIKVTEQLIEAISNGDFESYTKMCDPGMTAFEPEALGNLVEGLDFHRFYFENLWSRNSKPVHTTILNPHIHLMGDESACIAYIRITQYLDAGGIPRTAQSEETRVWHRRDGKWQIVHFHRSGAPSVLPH
SMILES,inhibition
N[C@@H](CCC(=O)N[C@@H](Cc1ccccc1)C(=O)O)C(=O)O,5%
NC1=NCC2c3ccccc3Cc3ccccc3N12 (centres unmarked),-6%
O=C(O)/C=C\c1cc2ccoc2cc1O[C@@H]1O[C@H](CO)[C@@H](O)[C@H](O)[C@H]1O,-23%
Cc1nc(NC(=O)N2CCC[C@H]2C(N)=O)sc1-c1ccnc(C(C)(C)C(F)(F)F)c1,10%
COc1ccc2c(c1OC)CN1CCc3cc4c(cc3C1=C2)OCO4,-3%
CC1CC(OC(=O)c2ccccc2O)CC(C)(C)C1 (centres unmarked),-5%
COc1cc2c(cc1OC)-c1cc3ccc4c(c3c(=O)n1CC2)OCO4,7%
CC(C)CCC[C@@H](C)[C@H]1CC[C@@]2(C)C3=C(CC[C@]12C)[C@@]1(C)CC[C@H](O)C(C)(C)[C@@H]1CC3,-46%
COc1ccc(-c2cc(=O)c3c(O)c(OC)c(O)c(OC)c3o2)cc1,17%
COc1nc(N)nc2c1ncn2[C@@H]1O[C@H](CO)[C@@H](O)[C@@H]1O,-6%
C=CC(=C)CCC=C(C)C,23%

# Block 2 — cell line: mouse MPNST tumor cells; technique: high-content immunofluorescence imaging; refers to: nuclear SOX9; concentration: 10 µM; time: 12 h; setting: mean of 2 replicates; reference: DMSO control; direction: higher = more nuclear SOX9
Structure (SMILES),nuclear SOX9 intensity
CCOC(=O)C1CSC(Cc2ccc(OCc3ccc([N+](=O)[O-])cc3)cc2)N1 (centres unmarked),108 % of DMSO
O=C(OC(C(F)(F)F)C(F)(F)F)N1CCN(Cc2cccc(Oc3ccccc3)c2)CC1,103 % of DMSO
CN(C)CCN(Cc1ccc(Cl)cc1)c1ccccn1,162 % of DMSO
NCCCCCC(=O)O,96 % of DMSO
CNc1nc(Nc2ccc(C(=O)N3CCOCC3)cc2OC)nc2[nH]cc(Cl)c12,82.7 % of DMSO
O=C(O)[C@H]1CCCC[C@H]1C(=O)N1CCc2ccccc2[C@H]1CN1C(=O)c2ccccc2C1=O,96.6 % of DMSO
COc1cc2c(CCNC(C)=O)c[nH]c2cc1Cl,93.1 % of DMSO
CC(=C(CCO)SSCC1CCCO1)N(C=O)Cc1cnc(C)nc1N (stereo in doubt),103 % of DMSO
Cc1ccc(Nc2ncc3c(n2)N(C)C(=O)N(c2cc(NC(=O)c4cccc(C(F)(F)F)c4)ccc2C)C3)cn1,150 % of DMSO
C[C@@H](O)CNC(C)(C)CC(=O)N[C@@H]1CCc2ccccc2N(Cc2ccc(-c3ccccc3-c3nn[nH]n3)cc2)C1=O,93.4 % of DMSO

# Block 3 — effect on: cell-free assay; technique: competition with immobilised ligand; concentration: 1 µM
# SMILES: O=C(NCc1ncc(C(F)(F)F)cc1Cl)c1ccc2c(c1)C1(CCS(=O)(=O)CC1)[C@@H](C1CC1)N2S(=O)(=O)c1ccc(F)cc1
target,remaining binding
"SLK (Homo sapiens, UniProt Q9H2G2)",100%
"PLK3 (Homo sapiens, UniProt Q9H4B4)",82%
"MARK2 (Homo sapiens, UniProt Q7KZI7)",63%
"PIKFYVE (Homo sapiens, UniProt Q9Y2I7)",73%
"NIM1K (Homo sapiens, UniProt Q8IY84)",78%
"NUAK1 (Homo sapiens, UniProt O60285)",88%
"PTK2B (Homo sapiens, UniProt Q14289)",100%
"DYRK2 (Homo sapiens, UniProt Q92630)",90%
"FLT3 (Homo sapiens, UniProt P36888)",100%
"NUAK2 (Homo sapiens, UniProt Q9H093)",75%
"MAP3K20 (Homo sapiens, UniProt Q9NYL2)",92%
"Tyrosine-protein kinase JAK1, JH1 (JAK1, Homo sapiens, UniProt P23458)",85%
"ULK2 (Homo sapiens, UniProt Q8IYT8)",54%
"MYLK2 (Homo sapiens, UniProt Q9H1R3)",83%
"DAPK3 (Homo sapiens, UniProt O43293)",89%
"EGFR (Homo sapiens, UniProt P00533, G719C)",90%
"CSNK2A2 (Homo sapiens, UniProt P19784)",72%
"SGK2 (Homo sapiens, UniProt Q9HBY8)",77%
"IRAK1 (Homo sapiens, UniProt P51617)",77%
"PRKD1 (Homo sapiens, UniProt Q15139)",76%

# Block 4 — SMILES: C=CCc1ccc(O)c(-c2ccc(O)c(CC=C)c2)c1; effect on: chloride current
# ANO1 del476-501: Anoctamin-1 (ANO1, Homo sapiens, UniProt Q5XXA6, del476-501)
# Chain of UniProt Q5XXA6 (whole entry, unmodified, looked up): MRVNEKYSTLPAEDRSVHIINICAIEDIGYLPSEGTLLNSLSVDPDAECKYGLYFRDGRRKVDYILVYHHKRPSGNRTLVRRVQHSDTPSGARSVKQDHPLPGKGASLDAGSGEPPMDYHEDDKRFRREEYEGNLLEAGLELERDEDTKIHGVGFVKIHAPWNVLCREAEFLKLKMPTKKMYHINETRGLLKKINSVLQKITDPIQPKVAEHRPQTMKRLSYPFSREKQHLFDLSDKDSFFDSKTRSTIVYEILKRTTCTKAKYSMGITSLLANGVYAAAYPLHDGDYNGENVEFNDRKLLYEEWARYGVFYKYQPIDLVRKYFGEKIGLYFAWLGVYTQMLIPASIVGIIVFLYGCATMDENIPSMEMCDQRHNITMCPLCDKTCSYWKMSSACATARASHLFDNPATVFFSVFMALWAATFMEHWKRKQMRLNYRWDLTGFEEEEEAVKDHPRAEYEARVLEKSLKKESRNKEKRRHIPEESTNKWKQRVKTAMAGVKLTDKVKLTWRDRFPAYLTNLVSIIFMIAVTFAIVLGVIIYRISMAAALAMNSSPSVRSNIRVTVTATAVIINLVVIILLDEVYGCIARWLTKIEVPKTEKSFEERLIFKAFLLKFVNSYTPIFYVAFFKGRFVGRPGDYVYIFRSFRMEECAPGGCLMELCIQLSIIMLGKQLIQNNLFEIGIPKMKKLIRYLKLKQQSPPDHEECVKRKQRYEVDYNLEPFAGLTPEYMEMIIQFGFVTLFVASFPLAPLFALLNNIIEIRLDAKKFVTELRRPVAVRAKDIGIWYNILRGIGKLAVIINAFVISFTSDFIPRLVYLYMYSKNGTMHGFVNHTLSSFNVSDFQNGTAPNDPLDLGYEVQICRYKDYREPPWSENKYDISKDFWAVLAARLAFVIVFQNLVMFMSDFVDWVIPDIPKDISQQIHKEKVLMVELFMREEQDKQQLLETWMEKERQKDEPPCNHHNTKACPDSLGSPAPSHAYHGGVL
# ANO1 del476-501/F628A: Anoctamin-1 (ANO1, Homo sapiens, UniProt Q5XXA6, del476-501/F628A)
target,test,setting,normalized current
"Anoctamin-1 (ANO1, Homo sapiens, UniProt Q5XXA6)",inside-out patch clamp,"10 µM, membrane voltage 100 mV",0.818
ANO1 del476-501,whole-cell voltage clamp,"3 µM, wild type, I-V at 80 mV, together with: 4 µM Ca2+",0.628
ANO1 del476-501,whole-cell voltage clamp,"30 µM, wild type, I-V at 60 mV, together with: 4 µM Ca2+",0.0389
"Anoctamin-1 (ANO1, Homo sapiens, UniProt Q5XXA6, del476-501/E659A/K629A)",inside-out patch clamp,"10 µM, membrane voltage 80 mV",0.654
ANO1 del476-501/F628A,whole-cell voltage clamp,"1 µM, I-V at -20 mV, together with: 4 µM Ca2+",-0.143
"Anoctamin-1 (ANO1, Homo sapiens, UniProt Q5XXA6, del476-501/N435G)","inhibitor, whole-cell voltage clamp","concentration not given, N435G mutant",0.374 and 0.497 and 0.361 and 0.413 and 0.388 and 0.395 and 0.403
ANO1 del476-501/F628A,whole-cell voltage clamp,"30 µM, concentration-response at -40 mV, together with: 4 µM Ca2+",-0.189
ANO1 del476-501,whole-cell voltage clamp,"1 µM, wild type, concentration-response at -40 mV, together with: 4 µM Ca2+",-0.325
ANO1 del476-501/F628A,whole-cell voltage clamp,"10 µM, concentration-response at 40 mV, together with: 4 µM Ca2+",0.305
ANO1 del476-501/F628A,whole-cell voltage clamp,"100 µM, I-V at -100 mV, together with: 4 µM Ca2+",-0.272
ANO1 del476-501/F628A,whole-cell voltage clamp,"10 µM, concentration-response at 20 mV, together with: 4 µM Ca2+",0.153
ANO1 del476-501,whole-cell voltage clamp,"concentration not given, together with: 300 nM Ca2+",0.414

# Some of these lines once more (block 1):
SMILES,inhibition
N[C@@H](CCC(=O)N[C@@H](Cc1ccccc1)C(=O)O)C(=O)O,5%
NC1=NCC2c3ccccc3Cc3ccccc3N12 (centres unmarked),-6%
O=C(O)/C=C\c1cc2ccoc2cc1O[C@@H]1O[C@H](CO)[C@@H](O)[C@H](O)[C@H]1O,-23%
Cc1nc(NC(=O)N2CCC[C@H]2C(N)=O)sc1-c1ccnc(C(C)(C)C(F)(F)F)c1,10%
COc1ccc2c(c1OC)CN1CCc3cc4c(cc3C1=C2)OCO4,-3%
CC1CC(OC(=O)c2ccccc2O)CC(C)(C)C1 (centres unmarked),-5%
COc1cc2c(cc1OC)-c1cc3ccc4c(c3c(=O)n1CC2)OCO4,7%
CC(C)CCC[C@@H](C)[C@H]1CC[C@@]2(C)C3=C(CC[C@]12C)[C@@]1(C)CC[C@H](O)C(C)(C)[C@@H]1CC3,-46%
